Results gathered from unrelated publications.
Every numbered part comes from another study and shows a few of its results, in no order. Changes are numbered by the printed parent chain.

Study 1 — method: RNA Bind-n-Seq; molecule type: RNA; sample: in vitro; concentration: 365 nM; baseline: no-protein control; direction: higher = stronger binding
Target: RNA binding protein fox-1 homolog 2, RRM domain, GST-SBP tag (RBFOX2, Homo sapiens, UniProt O43251-10, residues 100-194)
Notes: natural RNA segment, single round, ends assumed
Constant ends, left off below: GGGAGUUCUACAGUCCGACGAUC … UGGAAUUCUCGGGUGCCAA
Construct (chain): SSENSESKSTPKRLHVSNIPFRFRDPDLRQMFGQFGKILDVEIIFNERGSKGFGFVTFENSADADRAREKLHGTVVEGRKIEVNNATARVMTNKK
Oligonucleotide | RBNS enrichment (R)
ACUGGGAGCUGGGGCAUUUCCAUCUCCUGGUGGCCAUCCCUGGUCAGGGUGUGAGUGAGCUCUGCUACUCCCCACCCAGUGCCUGAGGAGCCUGUCAGGUUUUGAGAGCU | 0.283
CUGAUGGUGUCCUCCUCUGGGCAGCUGUAUAGGAUCAUCAUGUGGUUACAAAAAAUACUUCCCUCAAAAAAAUUCUUUUAAUGUGGAAACAAUAAAUUUCACAGAAAAAA | 0.393
AACUGGCUCCUGGUCUCUAGCCUGUGACCGGCUUGCUUAAUGUCCUCAGAACCUGACAGGUAUGUUCAAAACUGUCAGUCUGUUUGUGCCUUAAAAGGGUGAGAAGGGCG | 1.04
UGUUGUCCUUAAAAGAUCAGGGCAGUGACUUUCACAGCAGGACUUUGACUCCCACAUUGGUUGAUCACACAAAACUGUCAGCAUUUGGGUAAUCUGAUGUAUAGUUGUUU | 0.782
AAGACAAAAUGAAACAAAACCGAGCAGUUAUGGGUUUUGUUCUAUAGGAUGCCAUCAGCCAUCGAGGGGGCGUCUUGCCUCUGCCCAUCGCUCCAGGAGUCUACGCUGUC | 0.493
UUGAAAGCUGGAGGGUGGGGCAGAGUGGGUUGGUUCUGGGUGGUCCUGACUCCCAGGAUCCUCCUACCCUCAUCUCACAGAUAACUUCAUGCAUCAAACUGGAACCCCUA | 0.248
AUCUAACCUGGGUUGAGCCUCCUCUCUGCUCUGCCACCGAAAUAAACGUUGAAUUUGGAGUUUGUAACUCUUGGCUGCUUCCUUUGUCUUUAAUUGCUCCACACUUCUUG | 1.32
UGGGGUGUGCUGGGAGGAUUACCAAGGCCCCCUUUUUUUGUGCCCUCUUGAAUCCAAGUGUCUGUAGCUUUGGAGACUGAGGGUCUGUGAAUAAAGGCGGUGGCACUGGA | 0.725
GAGGGGGUGGUCCCUUAAUGGCCCCUGAAGAUGUUGGAUGUGUUUCUCAAAAGCUGCUUUGUCUCUUUCCUGAGUUUAAUAGUGAAACUACUAAACAUUAAUAGAUUUGC | 0.279
AGCACAGGUGCCCAAGUCAGAGAGCUGAAAGCCAUCACCCAAUGACUGCCCCUUCAUUCGGGUCUCUAACAGCUCUCCAAGCUGGGUCAGCCACCACUGUGCUCGCUCCA | 0.501
GCCUAGGAGUGUGAGACUGAUGUUGCUGGACAGAAAGUGAUCCUUAGCCCAGUGUGUCAGCGUCCAUUGUUACUCAUCACUGCAUUGUUGGGCAAUUAGUUUGUAAUUUG | 0.436
UGAGCCCAGUUAGUACCCCGCUGGCUCACUGCACGAGAGAGUCCUGCCCCGAGCCCUAGGUGGGGCCAGGAGGUGCCUUGGAGAAGCCAGCCAGAGCAGAGAGGGCUGCU | 2.4

Study 2 — method: RNA Bind-n-Seq; molecule type: RNA; sample: in vitro; concentration: not given; baseline: input RNA pool; direction: higher = stronger binding
Target: RING finger protein unkempt homolog, zinc fingers 1-6, GST-SBP tag (UNK, Homo sapiens, UniProt Q9C0B0, residues 30-357)
Chain of UniProt Q9C0B0 (30-357, looked up): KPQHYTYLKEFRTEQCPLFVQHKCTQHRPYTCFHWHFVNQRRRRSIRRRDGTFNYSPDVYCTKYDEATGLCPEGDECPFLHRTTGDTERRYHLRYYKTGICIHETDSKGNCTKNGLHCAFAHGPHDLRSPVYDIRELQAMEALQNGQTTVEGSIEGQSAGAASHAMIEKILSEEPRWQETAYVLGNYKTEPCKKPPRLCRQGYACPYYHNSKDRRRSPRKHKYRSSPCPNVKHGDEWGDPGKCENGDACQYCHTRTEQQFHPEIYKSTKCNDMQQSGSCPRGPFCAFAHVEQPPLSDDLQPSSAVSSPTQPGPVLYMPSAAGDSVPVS
Notes: RNA with constant flanks, human-mouse chimeric sites, ends assumed
Constant ends, left off below: GGGAGUUCUACAGUCCGACGAUC … CAACAGAGGAUUGAGCAUCA
Oligonucleotide | bound/input enrichment
UGGGCACUCUAUCAGAUAUAUUAAUUUUUUAAUGUAGAUGUAAUUUUAAAAAUGAAUGGCUACUUUACACGUUUAACUAGGCUCUUACUAUAUAUGUGUACAUAUGUAUAUAUAUAUAUA | 8.13 ratio
UGUAACUCUUAUCUGUAAGGUUCCCCCCCCCUACUGUAAAAAAAUAUGCAUGUAUAGUAAUUAGGACUUCAUUCCUCCAUGUUUUCUUCCCUUAUCUUACUGUCAUUGUCCUUAAACCUU | 3.31 ratio
UAUAUCACCAAUGUUCUACAAAAUCCUGACUUGGCUCUGAGAAUGGCUGUGCGGAACAACUUAGCUGGUGCUGAAGAACUCUUUGCCCGGAAAUUUAAUGCUCUUUUCGCCCAGGGAAAC | 0.189 ratio
GCUGAAAAUGAAGAAGAGGCAGCUGAUGUCUGGUACAACUUGGGACACAUAGCUGUGGGAAUCGGAGAUACAAACUUGGCCCACCAAUGCUUCAGGCUGGCUCUGGUCCACAACAACCAC | 0.175 ratio
CUGAAAAACACAGAUAUCAAAGUUGUUGACUUUGGAAGUGCAACGUAUGAUGAUGAACAUCAUAGUACUUUGGUGUCUACCCGGCACUACAGAGCUCCAGAGGUCAUUUUGGCUUUAGGU | 0.35 ratio
UUUCUACUGCAGCAAACGAUGCUAAGAAUUAAGGAUCCUAAGAAGUCCCUGGAUUUUUAUACGAGGGUUCUUGGACUGACCCUCCUGCAAAAAUGUGACUUCCCUGCUAUGAAGUUUUCG | 0.299 ratio

Study 3 — target: CCNB2, cyclin fold, Cln2 fusion (human); method: yeast growth competition, sequencing; sample: yeast; notes: weak parent motif; baseline: not given; direction: higher = stronger binding
Starting sequence: RB1 docking peptide (human); PKPLKKLRFDIEG; partner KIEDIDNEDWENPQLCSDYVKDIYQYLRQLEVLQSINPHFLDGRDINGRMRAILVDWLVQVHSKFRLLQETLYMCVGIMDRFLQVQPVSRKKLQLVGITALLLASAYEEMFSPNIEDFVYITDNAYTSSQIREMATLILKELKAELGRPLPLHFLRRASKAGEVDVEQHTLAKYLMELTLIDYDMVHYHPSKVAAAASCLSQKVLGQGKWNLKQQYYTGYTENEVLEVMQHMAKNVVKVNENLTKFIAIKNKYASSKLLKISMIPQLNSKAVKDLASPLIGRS
Substitution | normalised enrichment score
F9C | 0.0801
L4T | 0.231
K5S | 0.962
R8P | 0.00758
P3C | 1.59
P1H | 0.613
K6V | 0.585
F9Q | 0.42
P3I | 0.183

Study 4 — method: universal PBM; molecule type: double-stranded DNA, one strand shown; sample: in vitro; concentration: not given; direction: higher = stronger binding
Target: Sal-like protein 4, full length isoform B (SALL4, Homo sapiens, UniProt Q9UJQ4-2, residues 1-616)
Notes: 8-mer, flanks averaged, mean of replicates
Oligonucleotide | E-score
ATGACAGA | 0.146
CGTGAAAC | -0.0673
CCAAAGGG | -0.207
CGAAGATC | 0.0543
CCCCCTCA | -0.186
CCCAGGGA | -0.333
AAGTTGCA | 0.0609
GGACCTCC | -0.324
AAGCGGTC | -0.214
GCCGTAAC | -0.00861
CGCAGGCG | -0.318
GCTGTTCC | -0.226
TAACCGTA | 0.124
ACGACCCC | -0.209
AATTCTTC | 0.19
ACTGTAAC | 0.0499
ATTGGGAA | 0.0949
AATGCTCC | -0.194

Study 5 — method: protein-binding microarray; molecule type: double-stranded DNA, one strand shown; sample: in vitro; concentration: 250 nM; notes: 60-bp whole probe; added: salmon DNA 0.4 mg/ml; baseline: random background probes; direction: higher = stronger binding; constant ends, left off below: GCCTAGCAC … GTCTTGATTCGCTTGACGCTGCTG
Target: Interferon regulatory factor 7, full length, phosphomimetic (IRF7, Homo sapiens, UniProt Q92985, residues 1-503, S101K/S471D/S472D/S475D/S476D/S477D/S483D/S484D/S487D)
Chain of UniProt Q92985 (whole entry, unmodified, looked up): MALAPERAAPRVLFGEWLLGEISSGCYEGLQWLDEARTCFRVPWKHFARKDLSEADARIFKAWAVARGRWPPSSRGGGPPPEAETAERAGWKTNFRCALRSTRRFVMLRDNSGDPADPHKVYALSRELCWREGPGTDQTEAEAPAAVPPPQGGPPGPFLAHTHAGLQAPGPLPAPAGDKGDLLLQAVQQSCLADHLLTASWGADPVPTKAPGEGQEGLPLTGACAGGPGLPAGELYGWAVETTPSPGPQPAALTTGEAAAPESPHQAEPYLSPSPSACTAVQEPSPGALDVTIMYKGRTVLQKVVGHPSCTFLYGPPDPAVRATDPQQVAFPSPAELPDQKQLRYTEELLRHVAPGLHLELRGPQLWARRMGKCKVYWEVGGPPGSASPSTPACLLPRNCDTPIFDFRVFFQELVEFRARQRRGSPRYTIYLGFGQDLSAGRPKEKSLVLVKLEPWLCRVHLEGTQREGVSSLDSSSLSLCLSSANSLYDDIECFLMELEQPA
Oligonucleotide | log fluorescence [z-score]
TTAGGACTCGACACTGGGTTAGTGCTA | 0.092
GACGGACTGGGTACTGGGGACGTGCTA | -0.643
GGCGATATCGGGACTGGAGACGTGCTA | -0.649
GGAAGCAGTGAGAAGGTGGCGTGCTAG | -0.638
GACGGTTCCGGTTTCGGGATGTGCTAG | 8.31
TTAGGAGTGGGTTTCGGTTAGTGCTAG | 6.38
TTAGGTTCCCTTTTCATTTAGTGCTAG | 4.23
TTAGATCTCAGTTTCGATTAGTGCTAG | 8.19
TTAGGACAGCTTATCCTTTAGTGCTAG | -0.116
TTAGATCTCAGTCGCGATTAGTGCTAG | 0.322
CTACTTCTGTTTTTGCTTTCGTGCTAG | 2.62
GACGGACTGGACTTTCGGTACGTGCTA | -0.306
GACGAACAGGGGACTGGAGACGTGCTA | -0.754
GTCGGTCTCGGTTTCGGGACGTGCTAG | 8.91
TCCCATTCTGAATTCGAATGGTGCTAG | 1.52
TATTTTTACATTATTACCTCGTGCTAG | 1.27
TCACTTCTCGAGTGCCGGACTGTGCTA | 1.07
TTCGATCTCAGTATCGATTAGTGCTAG | 0.857

Study 6 — method: protein binding microarray; molecule type: double-stranded DNA, one strand shown; sample: in vitro; concentration: not given; baseline: not given; direction: higher = stronger binding
Target: Histone acetyltransferase KAT6A, both winged helices, GST fusion (KAT6A, Homo sapiens, UniProt Q92794, residues 1-181)
Notes: 8-mer, flanks averaged, mean of 2 arrays, mostly near background
Construct (chain): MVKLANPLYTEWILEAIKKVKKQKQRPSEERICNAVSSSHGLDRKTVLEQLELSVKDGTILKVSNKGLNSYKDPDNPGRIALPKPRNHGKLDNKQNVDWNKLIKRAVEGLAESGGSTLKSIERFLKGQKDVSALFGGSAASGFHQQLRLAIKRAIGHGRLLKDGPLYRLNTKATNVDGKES
Oligonucleotide | E-score
CCGTTTAG | 0.252
ATCATGCG | 0.1
CCTGTCGA | -0.0902
ATACCTTG | -0.038
GGGACGAA | 0.131
ATGTGGTG | -0.0858
CCGATTTC | 0.00993
AGATGGAG | -0.137
TGCAAACA | -0.0652
AAGAACCC | -0.0568
GGCACAGA | 0.0917
CGATCACG | 0.236
CCGTAGCA | 0.225
GCGAAATA | 0.0112
ACTTTCCC | -0.177
AAAGCCCG | 0.121
GTGGATTA | -0.0819
AGGTTGTC | -0.148
GCCTGTCA | 0.0119
ATGACGAA | -0.167
ATAGACTA | -0.232
GAGCGATC | 0.146
ACCACCTA | -0.0865
ACTTTGGC | -0.0205
GCAATCAC | 0.0913

Repeated from above (study 3):
Substitution | normalised enrichment score
F9C | 0.0801
L4T | 0.231
K5S | 0.962
R8P | 0.00758
P3C | 1.59
P1H | 0.613
K6V | 0.585
F9Q | 0.42
P3I | 0.183
